Results from different studies.
Each line is one published result; not all experiments were run side by side. Values joined by “and” are separate records of one study, mostly repeats; a detail may differ. ± gives the spread as reported.
Organism: Plasmodium falciparum

SMILES | observed | method | strain | time | setting | IC50
CC1=N[C@H](C)Cc2c(-c3cccc(Cl)c3)ccc(O)c21 | parasite growth | SYBR Green | NF54 | 96 h | blood stage | 1930 nM
O=C(C1CCN(c2nnnn2-c2ccc(N3CCCC3)cc2)CC1)N1CCCc2ccccc21 | parasite growth |  | 3D7 | 72 h | blood stage | 150 nM
COc1cc2nc(N3CCCN(C)CC3)nc(NC3CCN(C)CC3)c2cc1OC | parasite growth | SYBR Green I | 3D7 | 3 days |  | > 300 nM
Clc1ccc2c(c1)nc(N1CCNCC1)n2-c1ccccc1 | parasite growth |  | NF54 |  | blood stage | 2080 nM
COc1ccc2nc3cc(Cl)ccc3c(NCCN3C(=O)c4ccc5c6c(ccc(c46)C3=O)C(=O)N(CCCn3ccnc3)C5=O)c2c1 | parasite growth | SYBR Green | 3D7 | 72 h | blood stage | 8.44 nM
CC1=N[C@H](C)Cc2c(-c3ccc4ccccc4c3)ccc(O)c21 | parasite growth | SYBR Green | NF54 | 96 h | blood stage | 740 nM
CCCCCCCCCC1CC2CCC3CC(CCCCCCCCC)NC(=N1)N23 (stereo not shown) | parasite growth | plasmodial LDH | D6 chloroquine-sensitive |  |  | 1480 nM
c1ccc(-c2ccc(CNc3ncnc4cc(OCC5CCN(CCNc6ccnc7ccccc67)CC5)ccc34)cc2)cc1 | parasite growth |  | NF54 |  | blood stage | 513 nM
CC1C=CC=CC(C)C2C=CC3CC(C)(O)C(Cl)C(C)C3C2C(=O)C(Cl)(Cl)C(=O)C(C)C(=O)O1 (stereo not shown) | parasite growth | ELISA | 3D7 |  | blood stage | 21 nM
Cc1ccc2c(c1)[n+]([O-])c(C#N)c(-c1ccco1)[n+]2[O-] | parasite growth | [3H]hypoxanthine incorporation | 3D7 chloroquine-sensitive |  |  | 930 ± 410 nM
Cc1c(-c2ccc[nH]2)c[nH]c1C=NC12CC3CC(CC(C3)C1)C2 | parasite growth | SYBR Green I fluorescence | D6, chloroquine-sensitive |  |  | > 2500 nM
COc1ccc2c(c1)[n+]([O-])c(C#N)c(-c1cccs1)[n+]2[O-] | parasite growth | [3H]hypoxanthine incorporation | 3D7 chloroquine-sensitive |  |  | 800 ± 100 nM
CC(C)C1=CC(=CNC2CCCCCCC2)N=C1c1ccc[nH]1 | parasite growth | SYBR Green I fluorescence | D6, chloroquine-sensitive |  |  | 1080 nM
COc1cc(O)c(-c2ccc(OC)c3c(O)cc(C)c(-c4cc(-c5c(O)cc(OC)c6c5C[C@@H](C)N[C@@H]6C)c5cc(C)cc(OC)c5c4O)c23)c2c1[C@@H](C)N(C)[C@H](C)C2 | parasite growth |  | NF54 |  | blood stage | 66 nM
O=C(C1CCN(c2nnnn2-c2ccccc2)CC1)N1CCCc2cccnc21 | parasite growth | SYBR Green | 3D7 | 72 h | blood stage | 4400 nM
Clc1ccc2c(NCCCN3CCN(c4ccnc(N5CCCC5)n4)CC3)ccnc2c1 | parasite growth |  | D6 | 72 h | blood stage | 15 nM
CC(C)(C)OC(=O)CNC(=O)[C@H](CCC(=O)N(O)c1ccc(Br)cc1)NC(=O)CC[C@H](N)C(=O)OC(C)(C)C | parasite growth | imaging | 3D7 | 48 h | blood stage | 35000 nM
CN(C)CCNC(=O)/C=C/[C@H](Cc1ccccc1)Nc1ccnc2cc(Cl)ccc12 |  |  | 3D7 | 48 h |  | 30.1 ± 1.06 nM
COC1(C)CC2C=CC3C(C)C=CC=CC(C)OC(=O)C(C)C(=O)C(Cl)(Cl)C(=O)C3C2C(C)C1O (stereo not shown) | parasite growth | ELISA | 3D7 |  | blood stage | > 7810 nM
COc1ccc2c(c1)CCCN2C(=O)C1CCN(c2nnnn2-c2ccccc2)CC1 | parasite growth | SYBR Green | 3D7 | 72 h | blood stage | > 25000 nM
CC1=C(C(=O)c2ccc([N+](=O)[O-])cc2)C(=O)c2ccccc2C1=O | parasite growth | SYBR Green | Dd2 | 72 h | synchronized ring stage | 513 ± 287 nM
CCCCN1C(=O)c2ccc3c4c(ccc(c24)C1=O)C(=O)N(CCNc1c2ccc(Cl)cc2nc2ccc(OC)cc12)C3=O | parasite growth | SYBR Green | 3D7 | 72 h | blood stage | < 5 nM and 3.65 nM
S=C(Nc1ccccc1)c1cccc(C(=S)Nc2ccccc2)n1 | parasite growth | SYBR Green | 3D7 | 96 h | blood stage | 142 nM
C1=CC(c2ccc[nH]2)=NC1=CNC1CCCCCCC1 | parasite growth | SYBR Green I fluorescence | D6, chloroquine-sensitive |  |  | > 2500 nM
COc1cc(O)c(-c2cc(-c3cc(-c4c(O)cc5c(c4OC)[C@H](C)N[C@H](C)C5)c4cc(C)cc(OC)c4c3O)c(O)c3c(OC)cc(C)cc23)c2c1[C@H](C)N[C@H](C)C2 | parasite growth | SYBR Green | NF54 | 96 h | blood stage | 63 nM
CCCCCC1CC2CCCC3CC(C)N=C(N1)N32 (stereo not shown) | parasite growth | plasmodial LDH | W2 chloroquine-resistant |  |  | 1070 nM

SMILES | observed | method | strain | time | setting | IC50
CN(C)CCCOc1ccc2cc1Oc1ccc(cc1)CC1c3c(cc(OCCCN(C)C)c4c3Oc3cc5c(cc3O4)CCN(C)C5C2)CCN1C (stereo not shown) | gametocyte viability | flow cytometry | NF54, stage II-V gametocytes |  |  | ~1000 nM
CC(C)(C)OC(=O)CNC(=O)[C@H](CCC(=O)N(O)c1ccc(Br)cc1)NC(=O)NC[C@H](N)C(=O)OC(C)(C)C | blood-stage growth | Giemsa-stained smears | 3D7 | 48 h | asynchronous culture | 30000 nM
CCC1=C(C)C(=CNC2CCCCCCC2)N=C1c1ccc[nH]1 | parasite growth | SYBR Green I fluorescence | D6, chloroquine-sensitive |  |  | 56 nM
C=C1[C@@H]([C@@]2(C)C=CC(=O)C(C)(C)[C@@H]2CC(=O)OC)[C@@H](OC(C)=O)[C@H](OC(C)=O)[C@@]2(C)[C@H](c3ccoc3)C[C@H]3O[C@]132 |  | [3H]hypoxanthine incorporation | D6, chloroquine-sensitive |  |  | 17100 ± 200 nM
CCC1=CC(=CNC23CC4CC(CC(C4)C2)C3)N=C1c1ccc[nH]1 | parasite growth | SYBR Green I fluorescence | D6, chloroquine-sensitive |  |  | 117 nM
CN(C(=O)c1ccn2ncc(-c3ccc(C(N)=O)cc3)c2c1)C1CCC(C#N)CC1 (stereo not shown) | parasite growth |  | 3D7 |  |  | 1430 nM
COc1ccc2c(c1)C1CC(C)(N2)c2c(C)nc3ccc(OC)cc3c21 (stereo not shown) | schizont development |  | INDO | 12 h | early to late schizont | 54300 nM
C[N+]1=C2C=C(NCCc3c[nH]c4ccccc34)C(=O)c3[nH]cc(c32)CC1 | parasite growth | SYBR Green I | W2 |  |  | ≤ 31 nM
CC1=N[C@H](C)Cc2c(-c3ccccc3)ccc(O)c21 | parasite growth | SYBR Green | NF54 | 96 h | blood stage | 5090 nM
COC(=O)[C@@H]1Cc2c([nH]c3ccccc23)[C@H](c2cccnc2)N1 | parasite growth |  | 3D7 | 48 h | blood stage | 4.82 µg/mL
N#Cc1c(-c2ccco2)[n+]([O-])c2ccc(Cl)cc2[n+]1[O-] | parasite growth | [3H]hypoxanthine incorporation | 3D7 chloroquine-sensitive |  |  | 490 ± 280 nM
CCNCC#CCNc1ccnc2cc(Cl)ccc12 | parasite growth |  | DD2 |  | blood stage | 91 nM
C[C@@H](C[C@@H](O)[C@H](O)C(C)(C)O)[C@@H]1CC[C@]2(C)C3=CC[C@H]4C(C)(C)C(=O)CC[C@]4(C)[C@H]3CC[C@@]12C |  | [3H]hypoxanthine incorporation | D6, chloroquine-sensitive |  |  | 37600 ± 1400 nM
CN(C)CCN1C(=O)c2ccc3c4c(ccc(c24)C1=O)C(=O)N(c1c2ccccc2nc2ccccc12)C3=O | parasite growth | SYBR Green | 3D7 | 72 h | blood stage | 545 nM
O=C(C1CCN(c2nnnn2-c2ccccc2)CC1)N1CCc2ccccc2C1 | parasite growth | SYBR Green | 3D7 | 72 h | blood stage | 23000 nM
COc1cc2nc(N3CCCN(C)CC3)nc(SC3CCN(Cc4ccccc4)CC3)c2cc1OC | parasite growth | SYBR Green I | 3D7 | 3 days |  | 1540 nM
CNC(=O)c1ccc(-c2cnn3ccc(C(=O)N(C)c4ccc(C#N)cn4)cc23)cc1 | parasite growth |  | 3D7 |  |  | 5 ± 1 nM
COc1ccc(-c2cccc3ccccc23)c2c1C=NC(C)(C)C2 | parasite growth | SYBR Green | NF54 | 96 h | blood stage | 14500 nM
CC1C=CC=CC(C)C2C=CC3CC(C)(O)C(Br)C(C)C3C2C(=O)C(Cl)(Cl)C(=O)C(C)C(=O)O1 (stereo not shown) | parasite growth | ELISA | 3D7 |  | blood stage | 25 nM
N[C@@H](CNC(=O)N[C@@H](CCC(=O)N(O)c1ccc(Br)cc1)C(=O)NCC(=O)O)C(=O)O | blood-stage growth | Giemsa-stained smears | 3D7 | 48 h |  | ~90000 nM
C1=CC(c2ccc[nH]2)=NC1=CNC12CC3CC(CC(C3)C1)C2 | parasite growth | SYBR Green I fluorescence | D6, chloroquine-sensitive |  |  | 341 nM
O=C(/C=C/c1ccc(Cl)c(Cl)c1)N1CCC(CCN2CCC(c3c[nH]c4cnccc34)CC2)CC1 | parasite growth | flow cytometry | 3D7 | 72 h |  | 23.6 ± 7.97 nM
CCC1=CC(c2ccc[nH]2)=NC1=CNC1CCCCCCC1 | parasite growth | SYBR Green I fluorescence | D6, chloroquine-sensitive |  |  | > 250 nM
CCOc1cccc(C(=O)Nc2ccc(-c3nc4ccccc4[nH]3)cc2)c1 | parasite growth |  | NF54 | 72 h | blood stage | 1760 nM
COC1=CC(c2ccc[nH]2)=NC1=CNC1CCCC1 | parasite growth | SYBR Green I fluorescence | D6, chloroquine-sensitive |  |  | 68 nM
O=C(C1CCN(c2nnnn2-c2cccc(Cl)c2)CC1)N1CCCc2ccccc21 | parasite growth | SYBR Green | 3D7 | 72 h | blood stage | 3400 nM

For quick reference, copied from above:
SMILES | observed | method | strain | time | setting | IC50
CC1=C(C(=O)c2ccc([N+](=O)[O-])cc2)C(=O)c2ccccc2C1=O | parasite growth | SYBR Green | Dd2 | 72 h | synchronized ring stage | 513 ± 287 nM
c1ccc(-c2ccc(CNc3ncnc4cc(OCC5CCN(CCNc6ccnc7ccccc67)CC5)ccc34)cc2)cc1 | parasite growth |  | NF54 |  | blood stage | 513 nM
S=C(Nc1ccccc1)c1cccc(C(=S)Nc2ccccc2)n1 | parasite growth | SYBR Green | 3D7 | 96 h | blood stage | 142 nM
